Results of several laboratories.
Parts stem from different laboratories: compare values within a part only.
Chain of UniProt P54760 (whole entry, looked up): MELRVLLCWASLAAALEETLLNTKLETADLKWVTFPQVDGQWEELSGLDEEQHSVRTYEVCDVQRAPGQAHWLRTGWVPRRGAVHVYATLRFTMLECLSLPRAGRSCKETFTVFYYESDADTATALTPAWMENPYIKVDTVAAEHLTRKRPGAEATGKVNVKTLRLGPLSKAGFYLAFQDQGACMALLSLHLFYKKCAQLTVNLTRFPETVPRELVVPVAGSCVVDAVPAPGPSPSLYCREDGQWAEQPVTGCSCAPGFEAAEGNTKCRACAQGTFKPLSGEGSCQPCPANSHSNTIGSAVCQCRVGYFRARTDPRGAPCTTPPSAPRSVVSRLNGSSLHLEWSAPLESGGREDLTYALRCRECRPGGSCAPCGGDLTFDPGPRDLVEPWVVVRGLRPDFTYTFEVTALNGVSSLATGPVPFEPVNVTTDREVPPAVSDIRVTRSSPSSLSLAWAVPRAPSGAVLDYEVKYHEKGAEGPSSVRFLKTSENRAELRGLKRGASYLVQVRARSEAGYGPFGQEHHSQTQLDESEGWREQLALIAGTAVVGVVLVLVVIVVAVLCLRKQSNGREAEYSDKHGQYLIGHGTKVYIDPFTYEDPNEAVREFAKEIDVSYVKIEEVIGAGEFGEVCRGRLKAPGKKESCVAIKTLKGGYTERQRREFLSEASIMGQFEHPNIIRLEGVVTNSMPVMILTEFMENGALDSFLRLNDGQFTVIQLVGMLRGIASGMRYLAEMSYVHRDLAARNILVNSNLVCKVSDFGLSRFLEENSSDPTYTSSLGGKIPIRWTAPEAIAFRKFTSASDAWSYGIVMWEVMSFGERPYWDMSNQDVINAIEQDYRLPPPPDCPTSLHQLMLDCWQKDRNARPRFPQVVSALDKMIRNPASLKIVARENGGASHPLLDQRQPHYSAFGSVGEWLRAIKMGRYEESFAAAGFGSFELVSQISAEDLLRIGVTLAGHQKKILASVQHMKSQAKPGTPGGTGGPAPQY

Set 1 — organism: Sarcocystis neurona; observed: parasite growth; tested at: concentration not given; notes: secondary screen
SMILES	inhibition
CC(CCCCC(=O)Nc1ccc(C(F)(F)F)cc1)NCCc1cnc[nH]1 (stereo not shown)	-7.8%
CC[C@@H]1C(=O)OC[C@@H]1Cc1cncn1C.Cl	-17.6%
C#C[C@]1(O)CC[C@H]2[C@@H]3CCC4=CC(=O)CC[C@@H]4[C@H]3CC[C@@]21C	-20.8%
O=C1c2c(O)cc(O)cc2OC(c2ccc(O)c(O)c2)C1O (stereo not shown)	-15.4%
CCC(C)(C)N=C(NC#N)Nc1cccnc1	-18%
CC(C)NCC(O)c1ccc(O)c(O)c1.Cl (stereo not shown)	6.6%
CS(=O)(=O)O.O=C(O[C@H]1C[C@H]2CC3C[C@@H](C1)N2CC3=O)c1c[nH]c2ccccc12	-26.9%
CC[C@@H](CO)NCCN[C@@H](CC)CO	-25.1%

Set 2 — observed: enzyme activity; mode: inhibitor; tested at: 10 µM
Target: Calcium/calmodulin-dependent protein kinase type II subunit alpha (CAMK2A, Homo sapiens, UniProt Q9UQM7)
Chain of UniProt Q9UQM7 (whole entry, looked up): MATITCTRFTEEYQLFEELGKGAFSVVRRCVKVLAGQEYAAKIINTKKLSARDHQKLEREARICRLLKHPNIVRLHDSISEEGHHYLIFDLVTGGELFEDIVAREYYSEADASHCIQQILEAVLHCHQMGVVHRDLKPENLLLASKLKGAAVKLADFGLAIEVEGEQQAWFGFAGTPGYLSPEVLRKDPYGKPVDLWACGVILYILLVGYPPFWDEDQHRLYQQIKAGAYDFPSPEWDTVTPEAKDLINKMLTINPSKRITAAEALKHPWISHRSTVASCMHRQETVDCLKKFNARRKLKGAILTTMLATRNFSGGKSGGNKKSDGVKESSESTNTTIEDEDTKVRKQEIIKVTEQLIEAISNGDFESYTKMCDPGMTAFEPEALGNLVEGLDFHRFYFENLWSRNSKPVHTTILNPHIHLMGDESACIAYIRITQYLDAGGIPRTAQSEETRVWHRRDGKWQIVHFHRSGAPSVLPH
SMILES	inhibition [%]
CS(=O)(=O)Nc1ccc([N+](=O)[O-])cc1Oc1ccccc1	-3
COc1cc(O)cc(O)c1C(=O)C=Cc1ccccc1	-37
Cc1cc2c(C(C)C)c(O)c(O)c(C=O)c2c(O)c1-c1c(C)cc2c(C(C)C)c(O)c(O)c(C=O)c2c1O	-5
COc1cc(N)cn[n+]1-c1ccccc1	9
Oc1cc(O)c2cc(O)c(-c3cc(O)c(O)c(O)c3)[o+]c2c1	-87
O=C1Nc2ccccc2C1(c1ccc(O)cc1)c1ccc(O)cc1	-4
N[C@@H](CC(=O)N[C@@H](CC(=O)O)C(=O)O)C(=O)O	25
CC(=O)[C@]1(O)Cc2c(O)c3c(c(O)c2[C@@H](O[C@H]2C[C@H](N)[C@H](O)[C@H](C)O2)C1)C(=O)c1ccccc1C3=O	2

Other studies, line by line
SMILES	target or system	test	test system	setting	scale	measurement	value
Cn1cncc1[C@@](O)(COc1ccc(C#N)cc1-c1ccc(OC(F)(F)F)cc1)c1ccc(C#N)cc1	EPHB4 (Homo sapiens, UniProt P54760)	cell-free assay, competition with immobilised ligand		1 µM		remaining binding	100%
CC(=O)N[C@@H](Cc1c[nH]c2ccccc12)C(=O)N[C@@H](CCC(=O)C=[N+]=[N-])C(=O)OC(C)C		histopathology	mouse C57BL/6 CES1-/-, GI tissue	subcutaneous, 0.26 mg/kg	direction not given	GI inflammation score	0
CC(C)C[C@@H]1NC(=O)[C@H](CC(C)C)NC(=O)[C@@H](CC(C)C)NC(=O)[C@H](C(C)C)NC(=O)[C@H](C)NC(=O)[C@H](C)NC(=O)[C@H](CCC(=O)N2CCCC2)NC1=O				pH 7.4		logD	-2.77
